Measurements from different studies.
Every numbered part comes from another study and shows a few of its results, in no order. Substitutions count along the parent as printed.

Block 1 — technique: DHFR PCA, deep sequencing; medium: yeast; with: (+)-ABA 0.032 µM; reference: wild-type fitted maximum; reading: higher = stronger binding
Target: ABI1, truncated, D143A, DHFR fusion (Arabidopsis thaliana)
Notes: methotrexate growth selection, single substitutions
Parent: PYL1, truncated, DHFR fusion (Arabidopsis thaliana); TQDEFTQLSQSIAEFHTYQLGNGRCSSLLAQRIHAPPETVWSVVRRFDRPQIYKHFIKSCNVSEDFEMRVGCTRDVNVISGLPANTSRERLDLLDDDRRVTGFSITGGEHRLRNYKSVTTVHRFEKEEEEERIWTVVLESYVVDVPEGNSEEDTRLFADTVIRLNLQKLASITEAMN; partner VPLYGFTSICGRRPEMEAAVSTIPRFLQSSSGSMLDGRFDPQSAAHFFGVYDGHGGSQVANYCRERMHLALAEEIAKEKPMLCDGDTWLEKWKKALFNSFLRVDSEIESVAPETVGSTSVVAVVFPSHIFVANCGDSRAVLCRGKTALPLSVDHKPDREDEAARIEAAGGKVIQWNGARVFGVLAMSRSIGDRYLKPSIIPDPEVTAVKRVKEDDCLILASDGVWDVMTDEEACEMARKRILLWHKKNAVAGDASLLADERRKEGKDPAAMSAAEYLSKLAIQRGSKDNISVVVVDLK
Variant | relative binding score [%]
F47T | -1.24
R155L | 5.4
L82N | 12
E147F | 6.79
G107A | 22.1
L29E | 0.181
E38Y | -2.2
S87W | 28
H122G | 1.9
L94I | 7.76
R32S | 15.5
V137E | 0.623
R99E | -3.25
V136M | 17.3
E14T | 3.04
A30H | 11.2
Y18C | 1.23
A13V | 6.36
T106W | 2.69

Block 2 — target: CCNE1, cyclin fold, Cln2 fusion (human); technique: yeast growth competition, sequencing; medium: yeast; notes: strong parent motif; reference: not given; reading: higher = stronger binding
Parent: PLK5 docking peptide (human); IFRKVGQRLLTQC
Variant | normalised enrichment score
IFRAVGQRLLTQC [K4A] | 1.19
IFAKVGQRLLTQC [R3A] | 1.03
IFRKVGQRLLAQC [T11A] | 1.59
IFRKVGARLLTQC [Q7A] | 1.59
IFRKVAQRLLTQC [G6A] | 1.05
IFRKVGQRALTQC [L9A] | 0.135

Block 3 — technique: RNA Bind-n-Seq; form: RNA; medium: in vitro; concentration: not given; notes: RNA with constant flanks, ends assumed; reference: input RNA pool; reading: higher = stronger binding
Target: RING finger protein unkempt homolog, zinc fingers 1-6, GST-SBP tag (UNK, Homo sapiens, UniProt Q9C0B0, residues 30-357)
Target sequence (chain): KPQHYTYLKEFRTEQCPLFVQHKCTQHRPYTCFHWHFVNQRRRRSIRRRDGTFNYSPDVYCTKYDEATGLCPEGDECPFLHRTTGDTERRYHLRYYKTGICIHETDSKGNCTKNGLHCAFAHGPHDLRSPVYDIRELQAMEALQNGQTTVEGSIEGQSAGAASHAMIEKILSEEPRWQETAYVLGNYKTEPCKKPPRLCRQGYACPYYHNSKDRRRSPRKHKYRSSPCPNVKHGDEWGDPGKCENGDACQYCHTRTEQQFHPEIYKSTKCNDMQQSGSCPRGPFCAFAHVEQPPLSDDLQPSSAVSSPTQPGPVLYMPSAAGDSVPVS
Sequence | bound/input enrichment [ratio]
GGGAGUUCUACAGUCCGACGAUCGCUGUGGCCAGAGGCUGUGCACUGCAGUGUGCAAUUCUUUCUCCGGCAUUUAAAGUCCGAGAGUUCUCUGUCACCGAUGCAGUUCCUUUUCCAAUAUCUCUGGUCUGGAACCACGACUCGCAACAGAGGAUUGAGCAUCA | 0.0848
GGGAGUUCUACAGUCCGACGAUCCCUGUACCCGCACCCCUGCCCAUGUGUACUGUAUGUGCCCCCAAAUGGAUGAGAGAUGGAAACCGAAAGAGGGGGCCCGAGCCCAGCCCCCAGCUCAGCCCGAAGCACUUAACCAGUCCCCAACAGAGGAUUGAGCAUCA | 0.472
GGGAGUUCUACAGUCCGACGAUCCGCGUUUUGUGUAGAGAAUAAGGAACGUGGAUCUUUUUAUUUUGCAAUCCUGGGCCAGCCCGAAGCCAGGAGCUGAUUGACCUUUUAACUUUUUUCAGUGGCCACAUUUUGGUUAUCGAUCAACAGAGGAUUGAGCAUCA | 0.493
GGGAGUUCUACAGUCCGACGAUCUUCUUCUUCUUUGACUCAGUUCAAGUAGUUUUUACAAUAUGUACAGCAGUUCUUGCAACGACCGCUUUUGCUUUUCUUCUCCUCCCGAUGUGCCAGUAUUUAACAAGACCCUGCUCACCUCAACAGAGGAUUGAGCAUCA | 4.79
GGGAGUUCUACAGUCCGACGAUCACCAUGAUGGAGGGUCAACUGAUCUCCGUAGCAGCCAGGGCAAAGUGAAUGACCUCAGAAACCCGGAAUUCUUGCAAAGACACUGCCUAAUAGUGUGAUUUUGAAACCUUGAUACAAAAGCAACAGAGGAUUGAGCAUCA | 0.334
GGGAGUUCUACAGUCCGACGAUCGGCUGCUGGUGACUGUCCUGGAGUGGCUGGAGUUCCCGCCGGAGCGCGGCCAGACUAAUUUCCGAAAAUGCCAAGUAGGAAGUUUGUUGAGGGUGAAGUGGUCAGAGGCCGAUGGCCUGGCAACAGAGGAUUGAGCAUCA | 0.185
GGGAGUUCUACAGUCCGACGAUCGUCCCGUUUGACUUUACACAUAAAAAACAAUCAGGUGGUGCAGGCCAGUAUGGAAAAGUAACCGGUGUCCUGGAGCCUCUGGACCCAGAGGACUACACUAAAUUGGAAUUUUCAGAUGAACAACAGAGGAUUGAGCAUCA | 0.307
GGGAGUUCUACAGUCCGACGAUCUUAAUAACAAGCAACUGCACAUCAAAGUCAGUUCCUGUAAGGAGACGUUCAUUUGAAUUUUCCGAUUUGCUGCUGCAAGAAUGGCAGACUCAUUCACUGGAAAGACAUGCAGCUGUUUUGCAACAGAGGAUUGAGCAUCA | 0.0839
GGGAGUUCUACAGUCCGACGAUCCUCAAUGGCUUGGAACCAGAAAAUAUCCACAUGAUGAUUGGGUCUAUGACAAUCGACUGCUCCGGAAUUCUAAAUGAUCUCUCCGACUGUGAAGAUAAGCUCUUUCCUAUUGGAUAUCAGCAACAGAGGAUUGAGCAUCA | 0.271
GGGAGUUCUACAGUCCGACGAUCGUUACAGGCCCUGGUGGAGUUCCAGUUCAAGGCAGUAAAUACGCAGCAGACCGUAACCAUUACCGACGCUAUCCACGUCGUAGGGGUCCUCCACGCAAUUACCAGCAAAAUUACCAGAAUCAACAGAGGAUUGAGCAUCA | 0.145
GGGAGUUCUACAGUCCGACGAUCGGCAUGAAGGACGAUCGUCGUGACAGAUACUCUGCAGGCAAAAGGGGUGGAUUUAAUACCUUCCGAGACAGGGAAAACUAUGACAGAGGCUACUCUAAUCUGCUUAAGAGAGAUUUUGGGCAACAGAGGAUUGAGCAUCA | 0.367

Block 4 — technique: protein-binding microarray; form: double-stranded DNA, one strand shown; medium: in vitro; concentration: 250 nM; notes: 60-bp whole probe; with: salmon DNA 0.4 mg/ml; reference: random background probes; reading: higher = stronger binding; all sequences stand within: GCCTAGCAC … GTCTTGATTCGCTTGACGCTGCTG
Target: Interferon regulatory factor 5, full length, phosphomimetic (IRF5, Homo sapiens, UniProt Q13568-2, residues 1-514, K96S/S451D/S453D/S456D/S462D)
Sequence | log fluorescence [z-score]
TCACCTTTTGCTTTACTACTGTGCTAG | 1.28
GACAGACTGGGTATCGGGACGTGCTAG | 0.375
GACGGCCTGGGTCTCGGGACGTGCTAG | -0.613
GACGGTTTCCGACTGCTGACGTGCTAG | 0.126
TCAATTTTCGTTTTTATACTGTGCTAG | 5.62
CATCCTGAGTCAAGTCAAGTGTGCTAG | -0.419
TTAGGTAACCTTATCCTTTAGTGCTAG | -0.0691
TCATCTCTGCTTGTGTCACTGTGCTAG | 0.362
TGAGGTCTCGGACTGGGTTAGTGCTAG | -0.527
GAGGGACTGGGACTGGGGACGTGCTAG | -0.668
TTAGGACTGCTTCTCCTTCAGTGCTAG | -0.515
TCAAATTAGTGTTTTGCACTGTGCTAG | 0.0645
TTAGGTTTCGCTTCCGGTTAGTGCTAG | 7.68
TTACAACTGAGTTTCGATTAGTGCTAG | 9.6
TTAGGTTTGCTTTTCCTTTAGTGCTAG | 0.528
TCATCTCACGCATCTGAAACTGTGCTA | 0.398
TACGGTTTCGGTCTCGGGACGTGCTAG | 9.69
TCATTATCCTATATCTGACTGTGCTAG | 0.81
GACCCTGGACACTTCACGTAGTGCTAG | -0.675
TTAGATATCAGTATCGATTGGTGCTAG | 7.26
GACGATTTCAGTTTCGAGACGTGCTAG | 7.32

Block 5 — technique: protein-binding microarray; form: double-stranded DNA, one strand shown; medium: in vitro; concentration: not given; reading: higher = stronger binding
Target: Hepatocyte nuclear factor 3-beta, forkhead domain (FOXA2, Homo sapiens, UniProt Q9Y261, residues 142-269)
Notes: k-mer, scored over probes, only values ≥0.25
Residues (chain): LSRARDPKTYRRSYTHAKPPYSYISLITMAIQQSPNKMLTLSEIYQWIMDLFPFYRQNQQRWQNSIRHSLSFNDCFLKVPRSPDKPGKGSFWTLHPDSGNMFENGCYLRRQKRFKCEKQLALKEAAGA
Sequence | E-score
GTATCTTA | 0.319
CGTAATAC | 0.266
GAATGATA | 0.255
AACAGACT | 0.298
CAACTGTA | 0.276
AACAATGA | 0.284
ATATAAGA | 0.376
AATACATG | 0.279
ATAAATGA | 0.253
GTGTAATA | 0.259
ACATTCCA | 0.319
CATCACAC | 0.268
ACTGTAGA | 0.264
ATCATACA | 0.388
CATAACAC | 0.293
GAATATTA | 0.254
TATATTGA | 0.348
ATCATAAC | 0.316
CATTATTA | 0.27

Excerpt of the above (block 5):
Sequence | E-score
AACAATGA | 0.284
ATATAAGA | 0.376
AATACATG | 0.279
ATAAATGA | 0.253
GTGTAATA | 0.259
ACATTCCA | 0.319
CATCACAC | 0.268
ACTGTAGA | 0.264
ATCATACA | 0.388
CATAACAC | 0.293
